Assay results collected from several papers.
Parts stem from different laboratories: compare values within a part only.
Chain of UniProt P51957 (whole entry, looked up): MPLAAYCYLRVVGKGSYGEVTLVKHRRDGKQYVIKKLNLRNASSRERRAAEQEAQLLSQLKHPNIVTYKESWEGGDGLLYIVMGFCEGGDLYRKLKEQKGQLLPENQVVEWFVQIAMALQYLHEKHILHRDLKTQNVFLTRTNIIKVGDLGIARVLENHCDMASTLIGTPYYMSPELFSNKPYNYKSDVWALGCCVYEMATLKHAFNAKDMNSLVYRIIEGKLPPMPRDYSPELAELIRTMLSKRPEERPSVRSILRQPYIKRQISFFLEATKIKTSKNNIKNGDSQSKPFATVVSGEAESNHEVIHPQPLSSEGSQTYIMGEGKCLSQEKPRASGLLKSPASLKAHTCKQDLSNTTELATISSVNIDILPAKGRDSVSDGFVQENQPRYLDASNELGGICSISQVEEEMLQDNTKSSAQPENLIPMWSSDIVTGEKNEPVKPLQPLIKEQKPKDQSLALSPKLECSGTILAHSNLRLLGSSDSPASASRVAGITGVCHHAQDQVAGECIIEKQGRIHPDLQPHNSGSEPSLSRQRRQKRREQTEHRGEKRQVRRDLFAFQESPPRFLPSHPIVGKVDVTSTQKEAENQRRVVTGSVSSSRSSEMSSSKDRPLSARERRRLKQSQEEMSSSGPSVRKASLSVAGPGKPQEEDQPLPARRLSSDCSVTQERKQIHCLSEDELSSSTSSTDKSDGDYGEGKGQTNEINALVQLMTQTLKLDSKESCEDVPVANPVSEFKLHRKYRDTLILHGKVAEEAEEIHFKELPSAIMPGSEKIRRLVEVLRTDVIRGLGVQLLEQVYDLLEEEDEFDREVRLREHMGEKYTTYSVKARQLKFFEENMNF
Chain of UniProt Q8WXR4 (whole entry, looked up): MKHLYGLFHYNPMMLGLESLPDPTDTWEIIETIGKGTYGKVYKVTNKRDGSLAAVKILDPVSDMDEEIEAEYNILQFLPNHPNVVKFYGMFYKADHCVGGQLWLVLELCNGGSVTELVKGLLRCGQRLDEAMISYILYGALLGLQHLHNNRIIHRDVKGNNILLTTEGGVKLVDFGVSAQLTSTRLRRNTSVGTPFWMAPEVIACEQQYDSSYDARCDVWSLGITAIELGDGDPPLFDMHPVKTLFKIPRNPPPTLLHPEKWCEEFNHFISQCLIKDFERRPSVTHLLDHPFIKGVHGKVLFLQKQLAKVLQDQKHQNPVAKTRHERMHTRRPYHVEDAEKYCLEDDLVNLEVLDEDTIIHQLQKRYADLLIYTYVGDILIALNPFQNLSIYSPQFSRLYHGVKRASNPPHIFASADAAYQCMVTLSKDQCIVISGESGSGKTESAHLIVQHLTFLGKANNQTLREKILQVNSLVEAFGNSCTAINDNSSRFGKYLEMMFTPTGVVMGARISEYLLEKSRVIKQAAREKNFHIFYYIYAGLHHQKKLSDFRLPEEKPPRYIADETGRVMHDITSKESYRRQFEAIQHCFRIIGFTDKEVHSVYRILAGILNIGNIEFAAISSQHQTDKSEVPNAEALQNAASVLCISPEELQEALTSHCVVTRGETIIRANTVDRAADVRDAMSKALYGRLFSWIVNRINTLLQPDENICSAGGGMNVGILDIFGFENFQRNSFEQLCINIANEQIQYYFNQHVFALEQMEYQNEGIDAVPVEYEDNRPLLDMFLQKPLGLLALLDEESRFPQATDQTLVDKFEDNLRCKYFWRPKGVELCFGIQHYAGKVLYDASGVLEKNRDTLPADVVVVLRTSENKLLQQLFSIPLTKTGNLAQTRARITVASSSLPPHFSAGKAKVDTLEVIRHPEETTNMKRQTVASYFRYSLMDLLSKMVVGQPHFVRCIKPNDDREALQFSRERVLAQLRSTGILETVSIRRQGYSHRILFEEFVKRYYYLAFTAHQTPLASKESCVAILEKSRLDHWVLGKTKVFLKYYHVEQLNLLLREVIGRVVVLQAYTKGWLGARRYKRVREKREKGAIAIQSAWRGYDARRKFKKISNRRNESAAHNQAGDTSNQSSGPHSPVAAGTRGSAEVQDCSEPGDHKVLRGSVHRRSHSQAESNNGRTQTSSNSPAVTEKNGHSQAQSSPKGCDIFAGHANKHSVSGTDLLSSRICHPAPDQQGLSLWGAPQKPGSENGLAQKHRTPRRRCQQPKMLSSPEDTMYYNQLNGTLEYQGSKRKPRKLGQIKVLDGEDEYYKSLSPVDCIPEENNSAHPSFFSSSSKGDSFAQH
Chain of UniProt Q6DT37 (whole entry, looked up): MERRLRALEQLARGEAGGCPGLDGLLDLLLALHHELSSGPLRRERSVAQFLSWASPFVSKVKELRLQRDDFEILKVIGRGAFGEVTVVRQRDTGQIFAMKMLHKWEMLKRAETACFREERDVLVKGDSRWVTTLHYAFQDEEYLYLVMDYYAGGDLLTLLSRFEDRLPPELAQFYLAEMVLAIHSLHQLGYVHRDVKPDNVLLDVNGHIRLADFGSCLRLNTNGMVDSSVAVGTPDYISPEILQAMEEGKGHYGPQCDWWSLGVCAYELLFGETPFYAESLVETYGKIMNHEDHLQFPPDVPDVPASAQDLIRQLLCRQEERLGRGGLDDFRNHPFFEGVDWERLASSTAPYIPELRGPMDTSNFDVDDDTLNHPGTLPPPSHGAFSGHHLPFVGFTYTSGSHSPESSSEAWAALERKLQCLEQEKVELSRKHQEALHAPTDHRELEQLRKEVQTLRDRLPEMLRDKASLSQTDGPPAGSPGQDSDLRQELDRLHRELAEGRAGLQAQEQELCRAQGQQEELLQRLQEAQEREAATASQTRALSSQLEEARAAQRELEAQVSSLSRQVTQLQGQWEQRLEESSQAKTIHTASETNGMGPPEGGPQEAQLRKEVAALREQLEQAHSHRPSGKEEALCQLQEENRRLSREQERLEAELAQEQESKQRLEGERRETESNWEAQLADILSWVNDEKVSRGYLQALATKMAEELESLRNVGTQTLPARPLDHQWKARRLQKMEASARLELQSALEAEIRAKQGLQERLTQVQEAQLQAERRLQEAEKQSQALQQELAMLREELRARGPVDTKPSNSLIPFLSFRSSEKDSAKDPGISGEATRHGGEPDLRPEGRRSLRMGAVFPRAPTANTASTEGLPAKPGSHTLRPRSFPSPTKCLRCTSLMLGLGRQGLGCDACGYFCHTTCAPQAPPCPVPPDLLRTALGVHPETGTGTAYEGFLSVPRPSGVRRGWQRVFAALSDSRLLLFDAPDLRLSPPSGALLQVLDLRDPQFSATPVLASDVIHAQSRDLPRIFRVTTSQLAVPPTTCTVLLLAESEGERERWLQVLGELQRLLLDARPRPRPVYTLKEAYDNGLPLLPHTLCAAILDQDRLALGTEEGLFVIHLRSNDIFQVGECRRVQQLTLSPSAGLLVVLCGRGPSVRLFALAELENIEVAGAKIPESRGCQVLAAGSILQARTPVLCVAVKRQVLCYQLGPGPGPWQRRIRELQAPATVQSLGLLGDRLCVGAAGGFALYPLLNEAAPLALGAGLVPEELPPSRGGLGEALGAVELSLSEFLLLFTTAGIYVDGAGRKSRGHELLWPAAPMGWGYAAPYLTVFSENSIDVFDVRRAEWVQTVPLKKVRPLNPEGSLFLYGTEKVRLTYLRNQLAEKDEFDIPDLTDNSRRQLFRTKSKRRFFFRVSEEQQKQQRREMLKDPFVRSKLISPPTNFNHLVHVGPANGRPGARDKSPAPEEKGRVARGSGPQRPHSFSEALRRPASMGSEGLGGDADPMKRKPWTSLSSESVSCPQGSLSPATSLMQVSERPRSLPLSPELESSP
Chain of UniProt P37023 (whole entry, looked up): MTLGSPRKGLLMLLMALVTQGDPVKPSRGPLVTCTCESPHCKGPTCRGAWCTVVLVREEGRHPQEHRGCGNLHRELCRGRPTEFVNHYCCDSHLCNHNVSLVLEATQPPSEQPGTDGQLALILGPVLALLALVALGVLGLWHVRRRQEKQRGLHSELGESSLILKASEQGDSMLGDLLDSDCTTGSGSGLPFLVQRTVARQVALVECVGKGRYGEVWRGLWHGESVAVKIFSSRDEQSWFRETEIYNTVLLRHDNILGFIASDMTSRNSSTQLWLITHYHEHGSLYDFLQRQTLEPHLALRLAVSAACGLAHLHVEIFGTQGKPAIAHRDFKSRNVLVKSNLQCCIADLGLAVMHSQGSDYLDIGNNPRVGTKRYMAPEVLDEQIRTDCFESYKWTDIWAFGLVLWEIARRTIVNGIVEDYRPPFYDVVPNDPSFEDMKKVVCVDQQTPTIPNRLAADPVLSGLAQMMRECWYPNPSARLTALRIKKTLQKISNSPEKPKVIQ

Set 1
Target: RING finger protein unkempt homolog, zinc fingers 1-6, GST-SBP tag (UNK, Homo sapiens, UniProt Q9C0B0, residues 30-357)
Chain of UniProt Q9C0B0 (30-357, looked up): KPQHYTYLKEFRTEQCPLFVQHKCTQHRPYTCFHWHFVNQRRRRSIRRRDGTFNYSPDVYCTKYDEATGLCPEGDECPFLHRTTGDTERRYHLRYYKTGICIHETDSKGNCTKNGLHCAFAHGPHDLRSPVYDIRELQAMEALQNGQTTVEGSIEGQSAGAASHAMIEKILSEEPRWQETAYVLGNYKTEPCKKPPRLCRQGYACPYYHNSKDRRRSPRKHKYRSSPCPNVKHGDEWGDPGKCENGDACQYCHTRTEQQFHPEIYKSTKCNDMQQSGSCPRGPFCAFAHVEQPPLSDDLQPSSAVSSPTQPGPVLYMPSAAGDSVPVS
Method: RNA Bind-n-Seq
Form: RNA
Matrix: in vitro
Concentration: not given
Setting: RNA with constant flanks, ends assumed
Reference: input RNA pool
Reading: higher = stronger binding
Sequence	bound/input enrichment
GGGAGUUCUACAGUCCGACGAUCAUAUUUCAUAUUGCAAAGAUGUUUACAAGUAUUUUAAUUUAAGUUCAGUGAACUUUUUUGCCGCUGGGUUAAAUCUUUUUAUUUUUAGUAUGGCCUUAUGGCAAAGAACACUGUAUUAUUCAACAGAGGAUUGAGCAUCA	2.18 ratio
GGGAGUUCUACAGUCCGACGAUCCAGUCAUGGAGAAAAACAUAUUAAAAUAAUUUCAUGGCAUUGAUGUUAAUUCUAGUCUAUCCGUUUUAUAAAAGUUAGGAUUCUUAUUUAGGAACAACAGGAAAUGACUGUUAAGGAGAACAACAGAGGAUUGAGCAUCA	6.63 ratio
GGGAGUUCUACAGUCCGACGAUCAACACAUGGCAGUUCAACUUCAAGUUCAACCUGACAGAGGAUAUGUACUCCCAGGAUUCCACCGAUCUGCUUGCAAACUCAGGGCUGCAGUUCCAGAAACACGAGGAGGAAGGGAUCGAUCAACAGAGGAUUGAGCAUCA	0.112 ratio
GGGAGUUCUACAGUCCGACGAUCUCACACUUAUAUUGUGGCAUAUAGUCAACAUGGAAGUAGACCAGCUCUGCUGAUUUGAAAUUCCGAUUUUUUAAAUUAUGUACUGGGGACAGGUUUUUGUCGCUUUACAUUGCUUCCUAGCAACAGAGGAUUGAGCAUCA	0.349 ratio
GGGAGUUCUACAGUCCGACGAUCGGAGGUCAGGUUCCUGACACAAACUACAUAUUUAUGGGUGAUUUUGUAGACAGAGGUUACUACCGUUUGGAGACCUUCACUUACCUUCUUGCAUUAAAGGCUAAAUGGCCUGAUCGUAUUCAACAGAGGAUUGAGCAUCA	0.289 ratio
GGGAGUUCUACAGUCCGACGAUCGCUCAGAGGGCCAUUAGUUCUGUUCCAGUUGGUAGACAACCCAUCAUCAUGCAGAGUACCCGCAAAUUUAACUUUACACCAGGGCGACCUGGAGUUCAGAAUGGUGGUGGUCAGUCUGAUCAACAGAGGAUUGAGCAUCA	0.203 ratio
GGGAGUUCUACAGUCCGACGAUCAUAGAAGACAGGGAUAAUACCUUUAUCUCUGGCCACUCAAAAAUGCAGUGCCAGGAGUGCUAAACCCCGAGGCCAAUACUGAUGACCUGGAAGGUGAUCCAUAUGAUUGUCACCACAAAGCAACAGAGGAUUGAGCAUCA	0.16 ratio
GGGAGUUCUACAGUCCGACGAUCAUUAAUGAGGGCCUUAAAGCUGCUGACAACGACCCCACGGCGCCACCGUAUGACUCCCUCUCCGUCUUUGACUACGAGGGCAGCGGCUCCACGGCUGGCUCCUUGAGCUCCCUCAACUCCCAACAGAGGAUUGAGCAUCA	0.146 ratio

Set 2
Target: Ras GTPase-activating protein-binding protein 1, full length (G3BP1, Homo sapiens, UniProt Q13283)
Chain of UniProt Q13283 (whole entry, looked up): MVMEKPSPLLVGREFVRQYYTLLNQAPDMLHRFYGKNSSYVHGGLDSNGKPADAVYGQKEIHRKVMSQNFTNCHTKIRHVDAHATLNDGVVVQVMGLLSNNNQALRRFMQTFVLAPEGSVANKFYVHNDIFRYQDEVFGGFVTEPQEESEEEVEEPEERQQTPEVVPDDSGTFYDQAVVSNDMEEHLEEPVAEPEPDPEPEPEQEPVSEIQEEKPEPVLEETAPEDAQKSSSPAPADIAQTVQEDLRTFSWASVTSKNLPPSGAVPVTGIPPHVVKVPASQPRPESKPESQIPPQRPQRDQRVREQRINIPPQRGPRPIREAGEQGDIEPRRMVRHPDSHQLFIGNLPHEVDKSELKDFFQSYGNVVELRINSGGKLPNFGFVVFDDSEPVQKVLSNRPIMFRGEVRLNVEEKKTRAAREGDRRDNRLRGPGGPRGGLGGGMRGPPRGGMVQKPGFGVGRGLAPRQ
Method: RNA Bind-n-Seq
Form: RNA
Matrix: in vitro
Concentration: 200 nM
Setting: whole 134-nt RNA, ends assumed
With: 150 mM LiCl
Reference: input library
Reading: higher = stronger binding
Each molecule: 7-deaza-guanosine replaces G
Sequence	log2 enrichment
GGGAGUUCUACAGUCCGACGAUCCCUCAAGUCCUGUGCUACACAUCGUAUGUACCGAAUCGGGGUGGGUGGGUGGAAAGUAUUAUGUUACGCCGUUCGGAUCUGCACUUCCAGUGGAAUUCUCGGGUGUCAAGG	-0.325
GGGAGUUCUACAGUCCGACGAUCUUGACCGGAGCGGCCGUCACUUUGGUACAAUCCUCAAUUACCUGCGGGAUGGGUCUGUGCCACUGCCGGAGAGUACGAGAGAACUGGGGGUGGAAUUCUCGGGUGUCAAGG	-1.37
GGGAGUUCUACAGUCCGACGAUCACAGGAAGUAAAAACAAAUGGAAAUGCUUCGGAUAGUGGCAGGGGUGGGGGUUGCUAAGGAAAGGGUGGGAUGGGAGUGGGUAAAGAGUUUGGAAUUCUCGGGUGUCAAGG	-0.124
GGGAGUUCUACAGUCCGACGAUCUAACUUUAGAGGAGGAUCUGAUGGCUAUGGCAGUGGACGUGGAUUUGGGGAUGGCUAUAAUGGGUAUGGAGGAGGACCUGGAGGUGGCAAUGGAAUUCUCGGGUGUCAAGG	-0.207
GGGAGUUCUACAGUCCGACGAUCAAGUCCUGUGCUACACAUCGUAUGUACCGAAUCGGUUUUUGGUUUUUGGAAAAAGGAAAGUAUUAUGUUACGCCGUUCGGAUCUGCACUUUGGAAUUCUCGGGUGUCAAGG	-0.976
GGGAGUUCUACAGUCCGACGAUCUGGGAGGUGGAUUUUGUUUAUUUUUUUAGCUCAUUUCCAGGGGUGGGAAUUUUUUUUUAAUAUGUGUCAUGAAUAAUGUUGUUUUUGAAAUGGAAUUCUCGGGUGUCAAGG	-0.341
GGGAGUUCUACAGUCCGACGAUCAGUCCUGUGCUACACAUCGUAUGUACCGAAUCGGGAAAAAGGGUUUUUGGGUUUGGGAAAGUAUUAUGUUACGCCGUUCGGAUCUGCACUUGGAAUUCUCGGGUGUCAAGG	-2.07
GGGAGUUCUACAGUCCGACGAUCGCAGGAAGUAAAAACAAAUGGAAAUGCUUCGGAUAGUGGCAGGGGUGGGGGUUGCUAAGGAAAGGGUUGGAUGGGAGUGGGUAAAGAGUUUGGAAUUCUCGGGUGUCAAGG	0.172

Set 3
Compound: O=C(O)[C@H]1[C@H](Cn2nnc3ccccc3c2=O)CC[C@@H]1C(=O)c1ccc(OCCC2CCOCC2)cc1
Concentration: 1 µM
target	test	remaining binding [%]
MAPKAPK2 (Homo sapiens, UniProt P49137)	cell-free assay, competition with immobilised ligand	89
Tyrosine-protein kinase ABL1, phosphorylated (ABL1, Homo sapiens, UniProt P00519, Q252H)	cell-free assay, competition with immobilised ligand	83
Tyrosine-protein kinase ABL1, phosphorylated (ABL1, Homo sapiens, UniProt P00519, M351T)	cell-free assay, competition with immobilised ligand	82
NEK4 (Homo sapiens, UniProt P51957)	cell-free assay, competition with immobilised ligand	84
Ribosomal protein S6 kinase alpha-2, C-terminal kinase domain (RPS6KA2, Homo sapiens, UniProt Q15349)	cell-free assay, competition with immobilised ligand	78
CSNK1A1 (Homo sapiens, UniProt P48729)	cell-free assay, competition with immobilised ligand	82
MAP3K11 (Homo sapiens, UniProt Q16584)	cell-free assay, competition with immobilised ligand	92
CDC42BPG (Homo sapiens, UniProt Q6DT37)	competition binding	93
BUB1 (Homo sapiens, UniProt O43683)	cell-free assay, competition with immobilised ligand	85
ACVRL1 (Homo sapiens, UniProt P37023)	binding, competition with immobilised ligand	85

Other studies, line by line
Concentration: 0.5 µM
SMILES	target	test	setting	how to read	remaining activity [%]
CNc1cc2c(Nc3cccc(Br)c3)ncnc2cn1	Myosin-IIIb (MYO3B, Homo sapiens, UniProt Q8WXR4)	enzyme activity, inhibitor	–	–	91.1
Cc1cc(Nc2cc(N3CCN(C)CC3)nc(Sc3ccc(NC(=O)C4CC4)cc3)n2)[nH]n1	TNK2 (Homo sapiens, UniProt Q07912)	kinase activity	with: ATP 10 µM	reference: untreated	66.4

Excerpt of the above (set 3):
target	test	remaining binding [%]
MAPKAPK2 (Homo sapiens, UniProt P49137)	cell-free assay, competition with immobilised ligand	89
CDC42BPG (Homo sapiens, UniProt Q6DT37)	competition binding	93
MAP3K11 (Homo sapiens, UniProt Q16584)	cell-free assay, competition with immobilised ligand	92
Tyrosine-protein kinase ABL1, phosphorylated (ABL1, Homo sapiens, UniProt P00519, M351T)	cell-free assay, competition with immobilised ligand	82
